# Experimental data from different studies.
# Every numbered part comes from another study and shows a few of its results, in no order. Positions count from the first letter of the parent shown.
# UniProt P18825, sequence (whole entry, looked up): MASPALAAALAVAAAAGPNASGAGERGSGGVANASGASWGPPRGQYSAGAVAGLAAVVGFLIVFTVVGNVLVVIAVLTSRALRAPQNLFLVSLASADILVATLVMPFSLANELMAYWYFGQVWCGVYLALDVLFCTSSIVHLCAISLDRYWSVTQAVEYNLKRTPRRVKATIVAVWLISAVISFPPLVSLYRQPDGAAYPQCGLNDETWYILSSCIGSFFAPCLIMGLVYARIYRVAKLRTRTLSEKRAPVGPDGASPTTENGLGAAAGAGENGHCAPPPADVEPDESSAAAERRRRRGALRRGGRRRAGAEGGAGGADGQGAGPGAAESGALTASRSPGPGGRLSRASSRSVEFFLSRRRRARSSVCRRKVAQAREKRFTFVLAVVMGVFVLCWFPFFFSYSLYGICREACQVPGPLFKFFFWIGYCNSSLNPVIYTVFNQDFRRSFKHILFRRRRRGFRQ
# UniProt Q5BJF2, sequence (whole entry, looked up): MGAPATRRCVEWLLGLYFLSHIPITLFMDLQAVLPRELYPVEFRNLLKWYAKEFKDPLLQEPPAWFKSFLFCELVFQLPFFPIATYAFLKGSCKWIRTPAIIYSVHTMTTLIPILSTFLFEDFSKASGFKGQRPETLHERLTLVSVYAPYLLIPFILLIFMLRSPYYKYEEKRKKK

# Set 1 — observed: ligand displacement; concentration: 10 µM
# SMILES: Cn1cncc1[C@@](O)(COc1ccc(C#N)cc1-c1ccc(OC(F)(F)F)cc1)c1ccc(C#N)cc1
target,inhibition [%]
"ADRA2C (Homo sapiens, UniProt P18825)",8.51
"TMEM97 (Homo sapiens, UniProt Q5BJF2)",37.8
"SLC6A4 (Homo sapiens, UniProt P31645)",-7.91

# Set 2 — observed: binding; technique: phage display NGS; molecule type: peptide; reference: input library
# Target: UDP-N-acetylglucosamine--peptide N-acetylglucosaminyltransferase 110 kDa subunit (OGT, Homo sapiens, UniProt O15294)
# UniProt O15294, sequence (whole entry, looked up): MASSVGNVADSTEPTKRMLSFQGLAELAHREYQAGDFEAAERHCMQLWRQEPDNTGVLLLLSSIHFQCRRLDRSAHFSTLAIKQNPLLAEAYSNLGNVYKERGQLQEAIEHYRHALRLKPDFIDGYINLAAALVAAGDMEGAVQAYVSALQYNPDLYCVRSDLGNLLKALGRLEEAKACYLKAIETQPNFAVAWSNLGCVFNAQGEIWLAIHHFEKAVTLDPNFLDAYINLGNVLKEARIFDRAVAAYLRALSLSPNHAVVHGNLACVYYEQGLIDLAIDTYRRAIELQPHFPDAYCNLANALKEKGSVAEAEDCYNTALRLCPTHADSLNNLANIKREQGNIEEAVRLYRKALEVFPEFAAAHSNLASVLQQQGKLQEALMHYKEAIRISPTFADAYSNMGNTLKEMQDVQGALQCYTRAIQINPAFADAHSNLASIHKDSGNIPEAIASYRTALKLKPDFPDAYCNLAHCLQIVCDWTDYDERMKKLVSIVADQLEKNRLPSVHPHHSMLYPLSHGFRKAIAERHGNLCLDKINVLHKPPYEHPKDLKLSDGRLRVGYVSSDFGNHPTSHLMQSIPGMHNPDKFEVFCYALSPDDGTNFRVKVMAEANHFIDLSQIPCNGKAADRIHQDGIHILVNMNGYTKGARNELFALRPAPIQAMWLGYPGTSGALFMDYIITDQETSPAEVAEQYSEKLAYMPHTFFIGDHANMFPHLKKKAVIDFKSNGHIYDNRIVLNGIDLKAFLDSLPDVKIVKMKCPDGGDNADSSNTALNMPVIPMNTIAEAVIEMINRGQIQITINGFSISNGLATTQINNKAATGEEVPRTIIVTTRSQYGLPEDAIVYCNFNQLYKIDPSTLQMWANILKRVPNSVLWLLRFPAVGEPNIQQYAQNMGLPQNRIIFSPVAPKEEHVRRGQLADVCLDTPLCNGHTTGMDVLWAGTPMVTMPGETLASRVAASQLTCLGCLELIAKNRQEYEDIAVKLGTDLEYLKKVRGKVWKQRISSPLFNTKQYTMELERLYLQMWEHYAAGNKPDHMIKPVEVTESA
Sequence,minimum log2 enrichment ratio
ETYFPPVYQMEFVQR,4.88
RHTQIKHHVPHQLF,2.04
EWGHGAYMHHNHEGP,2.08
SLFLPAYPIEATYR,4.24
VHIDNWNHHHYAAVE,2.6
FPVHHHYKWFQHEVD,2.67
TGMHDAHPHWWHMTV,3.29
HWQRHHMDAPFQMPY,2.33
DHARHPHEGTGTSHH,2.73
SIHTWSVGKHFRHHW,2.78
QLAAYSPVYQIPILY,2.75
VYSPVYQIIVNQNH,3.43
WMENFHMPSMMHIQY,1.39
HLHRDIHNKYNSIVN,1.38

# Set 3 — target: tungstate, free oxyanion; technique: microfluidic competitive inhibition; matrix: in vitro, cell-free expressed; concentration: not given; direction: lower = stronger binding
# Setting: derived from inhibition constants, unchanged parent 2230 nM
# Starting sequence: PafA, mature enzyme, eGFP fusion (Elizabethkingia meningoseptica, UniProt Q9KJX5); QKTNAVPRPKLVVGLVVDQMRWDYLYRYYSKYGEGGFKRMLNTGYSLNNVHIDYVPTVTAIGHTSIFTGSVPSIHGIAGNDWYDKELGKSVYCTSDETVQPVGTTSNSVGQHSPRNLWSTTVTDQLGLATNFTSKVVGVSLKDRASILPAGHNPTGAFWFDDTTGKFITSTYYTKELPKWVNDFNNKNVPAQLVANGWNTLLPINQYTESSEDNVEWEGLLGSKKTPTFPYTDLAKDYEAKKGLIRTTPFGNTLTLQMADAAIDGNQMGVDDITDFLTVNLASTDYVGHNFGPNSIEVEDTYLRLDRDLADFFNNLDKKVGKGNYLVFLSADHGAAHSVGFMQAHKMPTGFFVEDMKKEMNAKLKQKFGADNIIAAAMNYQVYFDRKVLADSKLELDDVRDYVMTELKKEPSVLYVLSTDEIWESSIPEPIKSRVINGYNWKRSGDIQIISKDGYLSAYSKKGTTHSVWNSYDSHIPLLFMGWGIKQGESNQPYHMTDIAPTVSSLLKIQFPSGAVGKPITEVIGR
Variant,oxyanion analog dissociation constant [nM]
D275G,2060
N214G,2050
P230G,1780
F313G,1410
Q510G,2470
N252G,3350
V55G,1720
K10V,2180
L305V,2820
S471G,2140
H337V,4780
D420G,2440
L234V,2160
T163G,1420
Q100G,1940
I449V,2750
E421V,2610
D162G,12200

# Set 4 — target: CCNF, cyclin fold, Cln2 fusion (human); technique: yeast growth competition, sequencing; matrix: yeast; setting: strong parent motif; reference: not given; direction: higher = stronger binding
# Starting sequence: INSM1 docking peptide (human); PKAIRKLHFEDEV
Variant,normalised enrichment score
PKAIRKHHFEDEV [L7H],-0.098
PKAIRKLDFEDEV [H8D],6.37
PKAIRKLHFHDEV [E10H],7.08
PYAIRKLHFEDEV [K2Y],7.28
PKAIRKLGFEDEV [H8G],4.93
PKAIRKLYFEDEV [H8Y],7.96
PKAIRKLAFEDEV [H8A],6.83
PKAIRSLHFEDEV [K6S],5.77

# Repeated from above (set 2):
Sequence,minimum log2 enrichment ratio
FPVHHHYKWFQHEVD,2.67
TGMHDAHPHWWHMTV,3.29
HWQRHHMDAPFQMPY,2.33
DHARHPHEGTGTSHH,2.73
SIHTWSVGKHFRHHW,2.78
